Published values gathered from unrelated publications.
± marks the error that the study gave.

Compound	assay	system	conditions	how to read	quantity	value
O=C([O-])CN1CCN(CC(=O)[O-])CCN(CC(=O)NC[C@H]2CC[C@H](C(=O)N[C@H](Cc3cnc4ccccc4c3)C(=O)NCCCC[C@H](NC(=O)N[C@@H](CCC(=O)O)C(=O)O)C(=O)O)CC2)CCN(CC(=O)[O-])CC1.[64Cu+2]	PET/CT	patients suspected prostate cancer, bone lesions	2 h post-injection		mean SUVmax	21.5 ± 17
CCOP(=O)(CC(=O)Nc1ccc(S(=O)(=O)N(CC(N)=O)c2ccc(N(CC(N)=O)S(=O)(=O)c3ccc(OC)cc3)c3ccccc23)cc1)OCC	novel object recognition	APP/PS1 mice	intragastric, 40 mg/kg, 60 days, lentivirus intracerebroventricular	reference: untreated APP/PS1	preference index	increased
CC[C@H](C)[C@H](NC(=O)[C@H](CCCCN)NC(=O)[C@H](CC(N)=O)NC(=O)CNC(=O)[C@@H](NC(=O)[C@H](C)NC(=O)[C@H](CCCNC(=N)N)NC(=O)[C@H](CC(C)C)NC(=O)[C@H](CCCCN)NC(=O)[C@H](CCCCN)NC(=O)[C@H](CCCCN)NC(=O)[C@H](C)NC(=O)[C@H](CCCCN)NC(=O)[C@@H]1CSSC[C@H](NC(=O)[C@H](CCCNC(=N)N)NC(=O)CN)C(=O)N[C@@H](CC(N)=O)C(=O)N[C@@H](CC(C)C)C(=O)N[C@@H](CC(C)C)C(=O)N1)C(C)C)C(=O)N[C@@H](CCCCN)C(=O)N[C@@H](CCC(=O)O)C(=O)N[C@H](C(=O)N[C@@H](CCCCN)C(=O)N[C@@H](CC(N)=O)C(=O)N[C@H](C(=O)N[C@H](C(=O)N[C@@H](Cc1ccccc1)C(=O)N[C@@H](CC(N)=O)C(=O)N[C@@H](CCCNC(=N)N)C(=O)O)C(C)C)C(C)C)[C@@H](C)CC	measured: MCP-1	BALB/c mice, CLP-induced sepsis, serum and lung	intraperitoneal, 5 mg/kg, 12 h post-surgery	reference: vehicle	cytokine level	decreased
Cc1cc2c(cc1C1(c3ncc(C(=O)O)cn3)CC1)C(C)(C)CCC2(C)C	RNA sequencing, measured: Cav1 mRNA	rat, brain	dose not given, 24 h, single dose	reference: vehicle	log2 fold change	-0.07
Cc1cc2c(cc1O)C=C1C=CC(=O)C(C)(C)[C@H]1CC2		mouse AOM/DSS colitis-associated cancer	100 mg/kg		small intestine adenomas per mouse	4.1
COc1cc(O)c(Cl)cc1/C=C/C(=O)c1ccc(C(F)(F)F)cc1	immunofluorescence, measured: occludin	mouse LPS acute lung injury, lung	dose not given		protein level	increased
COc1c2c(cc3oc(CO)cc(=O)c13)O[C@H](C(C)(C)O)C2	analgesic effect	mouse	oral, 2 mg/kg, 2 h		hot plate latency	14.6 ± 1.8 s
NC[C@@H](C(=O)Nc1ccc(-c2cn[nH]c2)cc1)c1ccccc1		NZW rabbits, magnetic bead-induced ocular hypertension	topical, 0.1 %		mean IOP reduction	22%
CC[C@H](C)[C@@H]1NC(=O)[C@H](Cc2ccc(O)cc2)NC(=O)[C@@H](N)CSSC[C@@H](C(=O)NCC(=O)N[C@@H](CCCCNC(=O)COCCOCCNC(=O)COCCOCCNC(=O)CC[C@H](NC(=O)CC[C@H](NC(=O)CCCCCCCCCCCCCCCCC(=O)O)C(=O)O)C(=O)O)C(=O)NCC(N)=O)NC(=O)[C@H](CC(N)=O)NC(=O)[C@H](CCC(N)=O)NC1=O		C57BL/6 mice, diet-induced obese	subcutaneous, 2 µmol/kg daily		onset of significant weight loss	9 days
CC[C@H]1[C@@H](O)[C@@H]2[C@H](CC[C@]3(C)[C@@H]([C@H](C)CCOS(=O)(=O)[O-])CC[C@@H]23)[C@@]2(C)CC[C@@H](O)C[C@@H]12.[Na+]	EchoMRI	ob/ob NASH mouse model	oral, 10 mg/kg once daily, before treatment, baseline of 8 week study	reference: body weight	whole-body lean mass	29.1 ± 0.6%
CCCCCCOC(=O)Cc1c(C)n(C(=O)c2ccc(Cl)cc2)c2ccc(OC)cc12	hot plate test	BALB/c mice	75 mg/kg, 60 min		latency of nociceptive response	15.2 ± 0.38 s
COc1ccc(C2CC(c3ccc(C)cc3)=Nc3ccccc3S2)cc1 (stereo not drawn)		Wistar rat, STZ-induced diabetes	oral, 10 mg/kg once daily, day 21		blood glucose	148 ± 5.01 mg/dL
CC(=O)N[C@@H](CCCNC(=N)N)C(=O)NCCOCCOCC(=O)N[C@H](C)C(=O)N1CCC[C@H]1B(O)O	plasma clot lysis	normal human plasma	50 µM, 72 h, 29 °C, at half lysis, together with: uPA		reduction of clot lysis time	7%
CC(C)(O)c1ncc([S@](N)(=O)=NC(=O)Nc2c3c(cc4c2CCC4)CCC3)s1	IL-1β release	healthy humans, whole blood ex vivo	oral, 25 mg twice daily, 24 h, steady state, maintained, crystalline tablets		inhibition	~90%
CN1CCC[C@]1(C)/C=C/S(=O)(=O)NC(=O)Nc1c2c(cc3c1CCC3)CCC2	IL-1β release, ex vivo whole blood	human, whole blood	oral, 25 mg single dose, 6 h, together with: LPS and ATP		inhibition	> 90%
CCc1nnc(NS(=O)(=O)c2ccc(NC(=S)NC(=O)/C=C/c3ccc(F)cc3)cc2)s1		SK-N-AS xenograft, athymic nude mice	intraperitoneal, 10 and 20 mg/kg daily, 18 days	reference: control	tumour weight	35 to 40%
NCC(=O)N1CCC[C@H]1C(=O)NCC(=O)NCC(=O)O	diketopiperazine formation, Arrhenius plot, ESI-MS	1-propanol	70, 80, 90 °C, 0.5% acetic acid		ΔG‡ at 298.15 K	23.2 ± 1.91 kcal/mol
CCCCCC(O)C=CC1OC2OC(C2F)C1CC=CCCCC(=O)O (stereo not drawn)	platelet aggregation, agonist, light transmission aggregometry	human platelet-rich plasma			Emax	77 ± 13.1%
CC[C@@H](C)N([11CH3])C(=O)c1nc(-c2ccc(Cl)cc2)c2ccccc2n1	binding, PET	rhesus monkey, cerebellum	dose not given	reference: baseline minus preblock VT	specific volume of distribution	22.3 mL/cm³
Clc1ccc(NN=C(c2ccccc2)c2ccccn2)nc1		BALB/c mouse, orthotopic 4T1 mammary tumour	dose not given	reference: vehicle	increase in life span	18%
CCCCCCCCCn1cc(C(N)(CO)CO)nn1		APP/PS1 mouse, cortical, hippocampal microglia	dose not given		ceramide level	no effect
CCCCCCCCCCCCCCCC(=O)N[C@@H](CCC(=O)NCCCC[C@H](NC(=O)[C@H](CC(=O)O)NC(=O)[C@H](CO)NC(=O)[C@@H](NC(=O)[C@H](Cc1ccccc1)NC(=O)[C@@H](NC(=O)CNC(=O)[C@H](CCC(N)=O)NC(=O)[C@H](CO)NC(=O)[C@@H](N)Cc1c[nH]cn1)[C@@H](C)O)[C@@H](C)O)C(=O)N[C@@H](CO)C(=O)N[C@@H](CCC(=O)O)C(=O)N[C@@H](Cc1ccc(O)cc1)C(=O)N[C@@H](CC(C)C)C(=O)N[C@@H](CC(=O)O)C(=O)N[C@@H](CO)C(=O)N[C@@H](CCC(=O)O)C(=O)N[C@@H](CCCNC(=N)N)C(=O)N[C@@H](C)C(=O)N[C@@H](CCCNC(=N)N)C(=O)N[C@@H](CC(=O)O)C(=O)N[C@@H](Cc1ccccc1)C(=O)N[C@H](C(=O)N[C@@H](C)C(=O)N[C@@H](Cc1c[nH]c2ccccc12)C(=O)N[C@@H](CC(C)C)C(=O)N[C@@H](CCC(=O)O)C(=O)N[C@@H](C)C(=O)NCC(=O)NCC(=O)O)C(C)C)C(=O)O		diet-induced obese mouse	subcutaneous, 30 nmol/kg daily, end of treatment		cumulative food intake	50 g
COc1cccc(OCCN2CCC[C@H](CN3CCc4cc(OC)c(OC)cc4CC3=O)C2)c1		VTA dopamine neurons, stress-naive male mice	intraperitoneal, 1 mg/kg	reference: baseline	firing rate	no effect

Compound	assay	system	conditions	how to read	quantity	value
Cc1nc(C)c(C=[N+]([O-])C(C)(C)C)nc1C	Western blot, measured: HO-1	mouse, MPTP model, substantia nigra cytosol	30 mg/kg		protein level increase	39.4%
CC(=O)[O-].O.[Cu+2].[O-]c1ccc(Br)cc1C=NCCN1CCOCC1	hydroxyl radical scavenging		240 µM		inhibition	56.1%
CSCC[C@H](NC(=O)[C@H](CC(C)C)NC(=O)CNC(=O)[C@H](Cc1ccccc1)NC(=O)[C@H](Cc1ccccc1)NC(=O)[C@H](CCC(N)=O)NC(=O)[C@H](CCC(N)=O)NC(=O)[C@@H]1CCCN1C(=O)[C@H](CCCCN)NC(=O)[C@@H]1CCCN1C(=O)[C@@H](N)CCCNC(=N)N)C(N)=O	flow cytometry, measured: CD31+CD133+CD309+	diabetic mice, hindlimb ischemia, blood	intravenous, 2.5 nmol/kg, 3 days	reference: PBMCs	endothelial progenitor cells	0.06 ± 0.03%
CC(C)(C)ONc1nc(Nc2ccnc(C(F)(F)F)c2)nc(-c2cccc(C(F)(F)F)n2)n1	measured: 2-hydroxyglutarate	mouse U-87 MG IDH2 R140Q xenograft, tumour	oral, 18.05 mg/kg, up to 0.5 h		2-HG level	47.2 ng/mg
CC(=O)N[C@@H](CC(N)=O)C(=O)NCC(=O)N[C@@H](CCCNC(=N)N)C(=O)N[C@@H](C)C(N)=O	1H NMR	sodium phosphate buffer 50 mM	pH 7.4, 55 °C		rate constant succinimide to β-Asp	5.83 h⁻¹
NC(=O)C[C@H](N)C(=O)N1CCC[C@H]1C(=O)NCC(=O)NCC(=O)O	diketopiperazine formation, Arrhenius plot, ESI-MS	1-propanol	70, 80, 90 °C, 0.5% acetic acid		ΔG‡ at 298.15 K	22.5 ± 0.478 kcal/mol
C[C@H](NC(=O)COC(=O)[C@H](C)NC(=O)CO)C(=O)O		water	pH 4, 25 °C		depolymerization rate constant	0.005 h⁻¹
CC(C)(CCCC/C=C/CCCCCC(C)(C)C(=O)O)C(=O)O		rhesus monkey, spontaneous hyperlipidemia	20 mg/kg, 2 weeks	reference: baseline	reduction in plasma TG	20.9%
CC(CCC(=O)NCc1ccc(C(=O)NO)cc1)C1CCC2C3C(O)CC4CC(O)CCC4(C)C3CCC12C (stereo not drawn)		PCK rats, liver cystic cholangiocytes	dose not given	reference: untreated	increase in primary cilium length	64%
CC(=O)[O-].Nc1ccc(C([O-])=NN=Cc2ccc(OCC(=O)Nc3ccc(Cl)cc3)cc2)cc1.O.O.O.[Cu+2]	ABTS radical scavenging, ABTS		concentration not given, 6 min		inhibition	74.7%
CCOC(=O)C1NC(c2ccc[n+](C)c2)C23c4c5c6c7c8c9c(c%10c%11c2c2c4c4c%12c5c5c6c6c8c8c%13c9c9c%10c%10c%11c%11c2c2c4c4c%12c%12c5c5c6c8c6c8c%13c9c9c%10c%10c%11c2c2c4c4c%12c5c6c5c8c9c%10c2c45)C713 (stereo not drawn)		mouse, BCBL1 PEL xenograft	intraperitoneal, 20 mg/kg, day 21		spleen weight	~0.15 g
CC=C1C(OC2OC(CO)C(O)C(O)C2O)OC=C(C(=O)OC)C1CC(=O)OCC1OC(OCCc2ccc(O)cc2)C(O)C(O)C1O (stereo not drawn)		BALB/c mouse, orthotopic colon 26 tumour	oral, 109.2 mg/kg daily, 10 days	reference: untreated tumour group	spleen to body weight ratio	decreased
CC(C)(O)c1ccc(N2Cc3c(ccnc3-c3ccc(F)cc3OCC(F)(F)F)C2=O)cc1		Gaucher disease mouse model, plasma	30 mg/kg, 2 months once daily	reference: vehicle	glucosylceramide level	21 ± 2%
CC(C)c1cnc(-c2cc(Cl)ccc2F)cc1Nc1ccncc1C(=O)NC(CO)CO	SMAD2/3 phosphorylation, flow cytometry	human patients, peripheral monocytes	dose not given, with enzalutamide		inhibition	> 50%
COc1ccc2c(c1)c(CC(=O)OCOC(C)=O)c(C)n2C(=O)c1ccc(Cl)cc1	hot plate test	BALB/c mice	75 mg/kg, 30 min		latency of nociceptive response	15.7 ± 1.24 s
C[C@H](N)C(=O)N1CCC[C@H]1C(=O)NCC(=O)NCC(=O)O	diketopiperazine formation, Arrhenius plot, ESI-MS	1-propanol	70, 80, 90 °C, 0.5% acetic acid		ΔG‡ at 298.15 K	22.5 ± 0.956 kcal/mol
Cc1cc(N)c2ccccc2[n+]1CCCCCCCCCCCCCC[n+]1c(C)cc(N)c2ccccc21		NOD/SCID mice, SK-N-AS xenograft	2.5 mg/kg	reference: vehicle	tumour weight	no effect
CN1CCN(c2ccc(Nc3ncc(Cl)c(Nc4ccccc4P(C)(C)=O)n3)cc2Br)CC1	immunohistochemistry	nude mice, PC9-OR xenograft, tumour	30 mg/kg	reference: vehicle	Ki67 level	decreased
C=C(c1cc(F)c(C(=O)O)c(F)c1)c1cc2c(cc1C)C(C)(C)CCC2(C)C	RNA sequencing, measured: Mta2	rat, brain	dose not given, 24 h	reference: vehicle	log2 fold change	1.88
CC1=CCC23OC2(C)CCC2C(CN(C)C)C(=O)OC2C13.Cl (stereo not drawn)		in vivo	dose not given, unit not given	reference: compound over vinblastine	inhibition of early lung metastasis	2
COc1c2c(cc3oc(C)cc(=O)c13)O[C@H](C(C)(C)O[C@@H]1O[C@H](CO)[C@@H](O)[C@H](O)[C@H]1O)C2	analgesia	mouse	oral, 2 mg/kg, 1.5 h		hot plate latency	11 ± 1.27 s
CC(C)(C)C(=O)Nc1ccc2[nH]c(CN3CCC(N(CCCN4CCOCC4)CC4OC(n5cnc6c(N)ncnc65)C(O)C4O)CC3)nc2c1 (stereo not drawn)	Western blot	BALB/c nude mice, H460 R231Q xenograft, tumour tissue	intraperitoneal, 20 mg/kg	reference: vehicle	H3K79me2 level	decreased

For quick reference, copied from above:
Compound	assay	system	conditions	how to read	quantity	value
COc1ccc2c(c1)c(CC(=O)OCOC(C)=O)c(C)n2C(=O)c1ccc(Cl)cc1	hot plate test	BALB/c mice	75 mg/kg, 30 min		latency of nociceptive response	15.7 ± 1.24 s
C[C@H](N)C(=O)N1CCC[C@H]1C(=O)NCC(=O)NCC(=O)O	diketopiperazine formation, Arrhenius plot, ESI-MS	1-propanol	70, 80, 90 °C, 0.5% acetic acid		ΔG‡ at 298.15 K	22.5 ± 0.956 kcal/mol
Cc1cc(N)c2ccccc2[n+]1CCCCCCCCCCCCCC[n+]1c(C)cc(N)c2ccccc21		NOD/SCID mice, SK-N-AS xenograft	2.5 mg/kg	reference: vehicle	tumour weight	no effect
CN1CCN(c2ccc(Nc3ncc(Cl)c(Nc4ccccc4P(C)(C)=O)n3)cc2Br)CC1	immunohistochemistry	nude mice, PC9-OR xenograft, tumour	30 mg/kg	reference: vehicle	Ki67 level	decreased
C=C(c1cc(F)c(C(=O)O)c(F)c1)c1cc2c(cc1C)C(C)(C)CCC2(C)C	RNA sequencing, measured: Mta2	rat, brain	dose not given, 24 h	reference: vehicle	log2 fold change	1.88
CC1=CCC23OC2(C)CCC2C(CN(C)C)C(=O)OC2C13.Cl (stereo not drawn)		in vivo	dose not given, unit not given	reference: compound over vinblastine	inhibition of early lung metastasis	2
